Measured values from different studies.
Parts stem from different laboratories: compare values within a part only. Changes are numbered by the printed parent chain.

Block 1 — method: DHFR PCA, deep sequencing; matrix: yeast; together with: (+)-ABA 58 µM; relative to: wild-type fitted maximum; direction: higher = stronger binding
Target: ABI1, truncated, D143A, DHFR fusion (Arabidopsis thaliana)
Notes: methotrexate growth selection, single substitutions
Starting sequence: PYL1, truncated, DHFR fusion (Arabidopsis thaliana); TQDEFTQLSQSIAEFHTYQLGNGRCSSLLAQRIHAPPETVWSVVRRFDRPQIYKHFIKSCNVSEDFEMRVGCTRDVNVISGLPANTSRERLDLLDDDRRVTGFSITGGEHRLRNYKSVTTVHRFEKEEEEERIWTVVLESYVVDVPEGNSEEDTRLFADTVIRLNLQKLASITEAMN
Variant	relative binding score
E174K	56.4%
V136R	8.46%
R69E	83.9%
H55W	77.7%
T173C	89.3%
V121A	13.8%
V161W	27.5%
M176D	81.6%
D65Q	84.7%
V44S	-3.33%
V70P	88.9%
D96G	21.3%
R98W	31.8%
R99V	-2%
A175Q	88.5%
I12E	5.07%

Block 2 — target: CCND2, cyclin fold, Cln2 fusion (human); method: yeast growth competition, sequencing; matrix: yeast; notes: weak parent motif; relative to: not given; direction: higher = stronger binding
Starting sequence: ORC1 docking peptide (human); PRARKRLELGNLG; partner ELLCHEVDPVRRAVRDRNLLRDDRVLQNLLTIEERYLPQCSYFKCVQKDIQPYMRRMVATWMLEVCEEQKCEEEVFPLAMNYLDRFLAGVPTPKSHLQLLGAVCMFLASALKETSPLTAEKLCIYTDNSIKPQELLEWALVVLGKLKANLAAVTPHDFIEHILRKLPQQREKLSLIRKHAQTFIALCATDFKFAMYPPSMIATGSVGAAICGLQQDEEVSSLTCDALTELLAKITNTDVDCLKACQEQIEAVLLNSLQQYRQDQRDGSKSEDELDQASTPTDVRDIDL
Variant	normalised enrichment score
K5A L7A	0.197
K5Y	-0.0448
G10Q	-0.0224
E8S	-0.17
G10K	-0.0521
E8W	0.13
E8F	-0.135
G10A	0.331
R2W	0.408
R4N	0.301
R6P	0.216
L9W	0.298
R6D	0.394
E8G	-0.183
L12C	0.185
G10M	0.727
K5N	0.0251
A3L	-0.194
E8K	0.0898
N11L	0.287

Block 3 — method: yeast two-hybrid; matrix: yeast; notes: mostly zero background; relative to: not given; direction: higher = stronger interaction
Sequence: EIKEYKARLTCPCCNTRKKDAVLTKCFHVFCFECVRGRYEARQRKCPKCNAAFGAHDFHR (RNF40 RING domain (UniProt O75150))
target	lacZ reporter activity
UBE2J2 UBC core domain (UniProt Q8N2K1)	0
UBE2S UBC core domain (UniProt Q16763)	0
UBE2R2 UBC core domain (UniProt Q712K3)	0
UBE2M UBC core domain (UniProt P61081)	0
UBE2B UBC core domain (UniProt P63146)	0
UBE2L3 UBC core domain (UniProt P68036)	0
UBE2D1 UBC core domain (UniProt P51668)	0
UBE2C UBC core domain (UniProt O00762)	0

Block 4 — method: RNA Bind-n-Seq; form: RNA; matrix: in vitro; tested at: 365 nM; relative to: no-protein control; direction: higher = stronger binding
Target: RNA binding protein fox-1 homolog 2, RRM domain, GST-SBP tag (RBFOX2, Homo sapiens, UniProt O43251-10, residues 100-194)
Notes: natural RNA segment, single round, ends assumed
Residues (chain): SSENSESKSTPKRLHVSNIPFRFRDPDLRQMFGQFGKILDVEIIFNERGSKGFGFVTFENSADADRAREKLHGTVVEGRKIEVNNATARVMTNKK
Sequence	RBNS enrichment (R)
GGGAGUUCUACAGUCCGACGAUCGCCAUUCAGUGAGCACUAGGACAGCUGGGACCUCCUGCCAUUCAGUGAGCACUAGGACAGCUGGGGGCUGCGUCAGGCUACUGGCUUCCUGUGUUCUCACCACUGUCCCUUGGAAUUCUCGGGUGCCAA	0.142
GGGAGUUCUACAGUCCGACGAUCUGCUUAUACUGUGAUAUCUCAUCCUAGCUAAGCUCUAUAAUGCCCAAGACCCCAAACAGUACUUUUACUUUGUUUGUACAAAAACAAAGACAUAUAGCCAAUACAAAUCAUGGAAUUCUCGGGUGCCAA	0.373
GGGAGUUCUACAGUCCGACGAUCUCAGAUGACAAAAUGGAAGCCAAGACACCUUGAAGGUGACUUUCUAGGAAGGUCUUAAGCAUGUAAUGUCCCUUUAUCAGAGGGAAGGGGACAAACUCAGGGCAGCCCUGUGGAAUUCUCGGGUGCCAA	2.61
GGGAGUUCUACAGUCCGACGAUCAGGAAGCAGUUUUAGUAUCAGAAAAGAUUUAUUAGAAAAUUCUCACGCUGAACUGGUGUAGCAUGUGGUGCAGCAUUCAGUGAAACUGGCUGGAGGAAAUAGGCUUGUUUUGGAAUUCUCGGGUGCCAA	9.45
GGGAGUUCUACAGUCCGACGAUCUUCGACACCAGGUACAGUAGGGCGGCACUUAUGACACCUACGUCGGCUCUGGUUGGCUGAUCAAGGGCAUGGACCAGGGGCUGCUGGGCAUGUGUCCUGGAGAGAGAAGGUGGAAUUCUCGGGUGCCAA	1.06
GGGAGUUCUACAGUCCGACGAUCGGAGCAAUUUGCACAUGUAACAUAGAUUUAUGUAAUGCUUUAUGUUUAAAAACAUUCCCCAAUUAUCUUAUUUAAUUUUUGCAAUUAUUCUAAUUUUAUAUAUAGAGAAAUGGAAUUCUCGGGUGCCAA	1.24
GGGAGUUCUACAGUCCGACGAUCUUUGCAGGCUAGACAUAACCCACUGAUGGAAAUGGUGAAGAAUGAGCUUCAUGUAGGUUUAAAAGUGUAUUCUGAGCCUGUAGAUGAUUAAUCAGGUUUUUAUUCAAUCAUGGAAUUCUCGGGUGCCAA	0.799
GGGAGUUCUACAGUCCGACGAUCCCAAAUUUAAAAUGUGUGCCAUAUUCUGGUUCUUGAAAAUAAGAUUCCAGAGCUCUUUGAUCGCUUUUAAUAAACUGCAAGUUCAUUUUAAAUGAAGGGCCAGCAUAUAUUGGAAUUCUCGGGUGCCAA	0.625

Excerpt of the above (block 2):
Variant	normalised enrichment score
R6P	0.216
L9W	0.298
R6D	0.394
